Assay results collected from several papers.
Protocols differ between the studies behind these lines. Numbers after ± are the reported error.
Histone chaperone ASF1A: Histone chaperone ASF1A (Homo sapiens, UniProt Q9Y294)
Sequence of UniProt Q9Y294 (whole entry, looked up): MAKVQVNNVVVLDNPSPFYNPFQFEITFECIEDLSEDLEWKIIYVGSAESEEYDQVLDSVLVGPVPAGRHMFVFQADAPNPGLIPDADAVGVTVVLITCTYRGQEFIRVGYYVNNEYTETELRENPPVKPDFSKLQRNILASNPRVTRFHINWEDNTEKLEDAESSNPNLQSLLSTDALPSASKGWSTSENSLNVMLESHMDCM
lecA: PA-I galactophilic lectin (lecA, Pseudomonas aeruginosa, UniProt Q05097)
Sequence of UniProt Q05097 (whole entry, looked up): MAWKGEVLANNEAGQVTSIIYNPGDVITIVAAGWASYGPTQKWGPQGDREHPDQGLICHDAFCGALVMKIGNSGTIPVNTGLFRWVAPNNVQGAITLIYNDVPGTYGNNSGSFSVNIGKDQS
MAOA: Amine oxidase [flavin-containing] A (MAOA, Homo sapiens, UniProt P21397)
Sequence of UniProt P21397 (whole entry, looked up): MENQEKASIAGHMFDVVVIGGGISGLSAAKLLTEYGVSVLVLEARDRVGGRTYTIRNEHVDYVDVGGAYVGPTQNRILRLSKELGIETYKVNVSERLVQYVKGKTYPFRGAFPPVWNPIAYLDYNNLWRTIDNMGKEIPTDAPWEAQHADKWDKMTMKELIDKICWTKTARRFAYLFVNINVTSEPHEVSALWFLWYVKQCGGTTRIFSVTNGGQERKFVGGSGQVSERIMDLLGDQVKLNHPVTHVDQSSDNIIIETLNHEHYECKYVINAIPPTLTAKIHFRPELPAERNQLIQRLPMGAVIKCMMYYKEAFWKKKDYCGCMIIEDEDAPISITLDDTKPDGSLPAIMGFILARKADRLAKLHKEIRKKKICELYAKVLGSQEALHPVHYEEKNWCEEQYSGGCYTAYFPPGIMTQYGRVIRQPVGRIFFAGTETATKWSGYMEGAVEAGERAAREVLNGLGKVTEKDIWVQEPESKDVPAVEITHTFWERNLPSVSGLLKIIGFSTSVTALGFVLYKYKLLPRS
Complement C3: Complement C3 (Homo sapiens, UniProt P01024)
Sequence of UniProt P01024 (whole entry, looked up): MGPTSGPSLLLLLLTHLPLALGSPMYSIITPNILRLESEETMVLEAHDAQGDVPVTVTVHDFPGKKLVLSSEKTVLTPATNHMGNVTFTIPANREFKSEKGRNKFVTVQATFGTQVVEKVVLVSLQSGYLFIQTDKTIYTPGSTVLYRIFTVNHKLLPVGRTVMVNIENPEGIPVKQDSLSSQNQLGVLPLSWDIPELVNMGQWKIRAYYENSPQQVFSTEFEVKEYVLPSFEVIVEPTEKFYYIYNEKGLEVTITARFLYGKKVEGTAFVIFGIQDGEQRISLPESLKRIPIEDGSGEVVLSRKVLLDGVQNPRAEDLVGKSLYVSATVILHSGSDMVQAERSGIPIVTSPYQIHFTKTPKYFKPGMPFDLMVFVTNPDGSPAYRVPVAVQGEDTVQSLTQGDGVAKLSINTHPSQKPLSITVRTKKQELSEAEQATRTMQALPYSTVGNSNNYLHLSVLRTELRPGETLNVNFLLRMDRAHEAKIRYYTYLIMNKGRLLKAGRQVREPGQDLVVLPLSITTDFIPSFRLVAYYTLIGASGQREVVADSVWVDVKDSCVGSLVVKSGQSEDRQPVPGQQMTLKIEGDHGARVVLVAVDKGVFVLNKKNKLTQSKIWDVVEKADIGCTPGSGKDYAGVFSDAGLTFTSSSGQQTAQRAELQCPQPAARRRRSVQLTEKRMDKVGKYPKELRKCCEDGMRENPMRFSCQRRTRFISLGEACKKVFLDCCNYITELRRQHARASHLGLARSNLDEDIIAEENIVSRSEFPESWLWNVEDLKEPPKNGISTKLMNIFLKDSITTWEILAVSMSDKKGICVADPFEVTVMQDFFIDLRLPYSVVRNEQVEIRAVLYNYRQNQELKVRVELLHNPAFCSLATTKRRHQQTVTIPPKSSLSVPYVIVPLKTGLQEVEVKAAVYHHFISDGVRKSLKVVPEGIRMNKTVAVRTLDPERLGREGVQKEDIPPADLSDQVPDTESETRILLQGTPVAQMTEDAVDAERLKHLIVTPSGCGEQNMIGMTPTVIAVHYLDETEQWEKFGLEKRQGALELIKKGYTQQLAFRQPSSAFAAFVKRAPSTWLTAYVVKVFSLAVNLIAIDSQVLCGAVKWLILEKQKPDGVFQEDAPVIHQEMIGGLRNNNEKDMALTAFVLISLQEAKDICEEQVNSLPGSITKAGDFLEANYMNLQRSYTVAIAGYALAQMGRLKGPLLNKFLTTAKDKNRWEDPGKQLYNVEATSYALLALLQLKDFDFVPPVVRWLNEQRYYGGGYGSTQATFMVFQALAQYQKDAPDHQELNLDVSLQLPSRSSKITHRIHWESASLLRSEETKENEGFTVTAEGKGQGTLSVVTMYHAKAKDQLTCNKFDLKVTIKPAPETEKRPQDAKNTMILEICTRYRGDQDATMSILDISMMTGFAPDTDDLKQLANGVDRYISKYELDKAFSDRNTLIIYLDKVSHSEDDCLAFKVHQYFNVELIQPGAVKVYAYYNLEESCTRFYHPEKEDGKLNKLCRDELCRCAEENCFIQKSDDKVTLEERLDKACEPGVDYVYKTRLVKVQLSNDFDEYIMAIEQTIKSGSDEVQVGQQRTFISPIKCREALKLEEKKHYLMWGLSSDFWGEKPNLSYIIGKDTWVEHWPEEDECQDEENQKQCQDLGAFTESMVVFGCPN
T1: RNA, hairpin (Homo sapiens); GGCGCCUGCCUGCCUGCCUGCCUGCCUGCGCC
Sequence of UniProt Q7L0J3 (whole entry, looked up): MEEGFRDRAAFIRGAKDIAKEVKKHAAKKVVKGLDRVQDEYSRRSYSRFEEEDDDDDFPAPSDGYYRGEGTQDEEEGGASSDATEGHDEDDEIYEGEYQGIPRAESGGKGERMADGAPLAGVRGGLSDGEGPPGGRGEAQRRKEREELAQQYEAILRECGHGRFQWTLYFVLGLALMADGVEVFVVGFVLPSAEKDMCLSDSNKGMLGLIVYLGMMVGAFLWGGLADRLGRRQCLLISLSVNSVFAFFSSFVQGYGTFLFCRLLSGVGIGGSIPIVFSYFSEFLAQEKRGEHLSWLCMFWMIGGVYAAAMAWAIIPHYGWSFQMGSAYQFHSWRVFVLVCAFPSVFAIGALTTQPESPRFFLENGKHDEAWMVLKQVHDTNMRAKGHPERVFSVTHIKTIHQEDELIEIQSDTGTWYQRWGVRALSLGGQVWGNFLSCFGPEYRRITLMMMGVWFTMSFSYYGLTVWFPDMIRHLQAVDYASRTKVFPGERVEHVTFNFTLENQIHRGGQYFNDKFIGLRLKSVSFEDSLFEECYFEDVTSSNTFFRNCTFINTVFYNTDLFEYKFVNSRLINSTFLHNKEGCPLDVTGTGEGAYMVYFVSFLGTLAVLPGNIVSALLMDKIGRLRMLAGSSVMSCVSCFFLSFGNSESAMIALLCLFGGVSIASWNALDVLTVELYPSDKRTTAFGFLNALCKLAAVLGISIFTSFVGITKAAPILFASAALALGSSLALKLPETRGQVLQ
Sequence of UniProt Q9Y3R4 (whole entry, looked up): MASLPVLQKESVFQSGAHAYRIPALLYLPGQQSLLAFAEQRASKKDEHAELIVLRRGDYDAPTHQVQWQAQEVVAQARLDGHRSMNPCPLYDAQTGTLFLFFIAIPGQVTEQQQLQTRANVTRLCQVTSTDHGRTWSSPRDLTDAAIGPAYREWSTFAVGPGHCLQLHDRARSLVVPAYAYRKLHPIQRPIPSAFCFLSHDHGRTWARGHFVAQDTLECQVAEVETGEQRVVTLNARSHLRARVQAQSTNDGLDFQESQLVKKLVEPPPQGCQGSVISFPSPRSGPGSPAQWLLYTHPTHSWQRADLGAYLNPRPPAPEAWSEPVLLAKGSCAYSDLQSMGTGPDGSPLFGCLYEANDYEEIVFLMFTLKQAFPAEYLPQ
Sequence of UniProt P50750 (whole entry, unmodified, looked up): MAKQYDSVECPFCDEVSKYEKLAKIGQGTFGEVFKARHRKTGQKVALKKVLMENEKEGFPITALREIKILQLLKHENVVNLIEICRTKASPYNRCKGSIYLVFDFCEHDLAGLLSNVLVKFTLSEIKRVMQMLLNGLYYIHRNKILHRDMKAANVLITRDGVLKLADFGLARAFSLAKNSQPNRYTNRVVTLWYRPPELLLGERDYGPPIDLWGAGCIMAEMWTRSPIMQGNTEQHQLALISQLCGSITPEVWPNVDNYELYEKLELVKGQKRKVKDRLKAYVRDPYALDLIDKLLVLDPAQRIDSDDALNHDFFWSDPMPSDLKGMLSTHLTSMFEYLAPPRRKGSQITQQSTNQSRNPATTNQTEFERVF
Sequence of UniProt Q9BV86 (whole entry, looked up): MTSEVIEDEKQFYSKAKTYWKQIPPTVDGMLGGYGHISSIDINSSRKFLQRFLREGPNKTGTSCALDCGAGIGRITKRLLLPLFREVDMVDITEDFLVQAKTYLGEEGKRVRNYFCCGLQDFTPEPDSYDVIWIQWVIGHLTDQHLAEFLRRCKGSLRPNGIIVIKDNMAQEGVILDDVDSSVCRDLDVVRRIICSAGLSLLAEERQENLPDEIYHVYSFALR
Sequence of UniProt Q00194 (whole entry, looked up): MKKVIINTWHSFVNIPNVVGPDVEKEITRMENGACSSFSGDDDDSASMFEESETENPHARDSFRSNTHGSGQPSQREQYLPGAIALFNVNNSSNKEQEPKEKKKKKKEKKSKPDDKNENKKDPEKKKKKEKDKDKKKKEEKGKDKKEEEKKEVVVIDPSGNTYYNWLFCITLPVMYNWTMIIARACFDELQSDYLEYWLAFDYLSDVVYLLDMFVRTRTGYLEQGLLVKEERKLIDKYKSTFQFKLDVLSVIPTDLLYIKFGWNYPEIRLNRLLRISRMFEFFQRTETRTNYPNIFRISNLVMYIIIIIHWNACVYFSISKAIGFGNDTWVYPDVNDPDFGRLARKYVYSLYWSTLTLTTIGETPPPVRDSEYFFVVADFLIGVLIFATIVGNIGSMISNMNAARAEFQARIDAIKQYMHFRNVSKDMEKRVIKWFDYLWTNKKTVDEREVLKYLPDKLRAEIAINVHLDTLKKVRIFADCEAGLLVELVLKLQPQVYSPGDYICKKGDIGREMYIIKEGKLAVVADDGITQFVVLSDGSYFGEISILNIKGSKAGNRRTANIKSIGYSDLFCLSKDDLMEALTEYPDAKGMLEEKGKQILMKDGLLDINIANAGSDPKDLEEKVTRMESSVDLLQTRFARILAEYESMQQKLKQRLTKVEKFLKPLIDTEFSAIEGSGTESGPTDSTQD

Under 2'3'-cGAMP uptake, `Nc1nc2c(ncn2[C@@H]2O[C@@H]3COP(=O)(O)O[C@H]4[C@@H](O)[C@H](n5cnc6c(N)ncnc65)O[C@@H]4COP(=O)(O)O[C@H]3[C@H]2O)c(=O)[nH]1` is recorded as “inhibited” (SLC19A1 (Homo sapiens, UniProt P41440); inhibitor; THP-1; 100 µM, 1 h).
`CN(C)c1ccc(/C=C2\Oc3cc(O)ccc3C2=O)cc1` — result for “shift of aggregation temperature”: “no effect” (ERO1-like protein beta (ERO1B, Homo sapiens, UniProt Q86YB8); CETSA; PC-9; 100 µM).
The binding stoichiometry of `CC[C@H](C)[C@H](NC(=O)[C@H](CCCNC(=N)N)NC(=O)NC[C@H](CCC(N)=O)NC(=O)NC[C@@H](NC(=O)NC[C@H](CCCNC(=N)N)NC(=O)NC[C@H](Cc1ccc2ccccc2c1)NC(=O)[C@H](CCCCN)NC(=O)[C@H](CCC(=O)O)NC(C)=O)C(c1ccccc1)c1ccccc1)C(=O)N[C@@H](C)C(N)=O` is reported as 1.2 ± 0.3 (Histone chaperone ASF1A; isothermal titration calorimetry; concentration not given, pH 7.5, 20 °C).
With `C[C@]12CC[C@H]3[C@@H](CCC4=CC(=O)CC[C@@]43C)[C@@H]1CC[C@@H]2C(=O)CO` the Km decrease was 2 fold (CYP11B2 (Homo sapiens, UniProt P19099); substrate; relative to: CYP11B2:adrenodoxin 1:10 over 1:1).
`O=C(COc1ccccc1)N[C@@H](Cc1cn(CCNC(=O)c2ccc(S[C@@H]3O[C@H](CO)[C@H](O)[C@H](O)[C@H]3O)cc2)nn1)C(=O)NCCO` gave a binding stoichiometry of 1 ± 0.1 (lecA; isothermal titration calorimetry; concentration not given).
`Nc1ncnc2c1ncn2[C@H]1C[C@H](O)[C@@H](COP(=O)(O)OP(=O)(O)C(F)(Cl)P(=O)(O)O)O1` (stereo partly drawn) — result for “delta effective pKa4”: 1.4 pK units (DNA polymerase eta (POLH, Homo sapiens, UniProt Q9Y253); dNTP incorporation, single-turnover kinetics; W sequence, A·T pair; relative to: non-enzymatic LFER line).
For `O=C1Nc2ccc(F)cc2/C1=N/N=C/c1ccc(OCc2cccc(F)c2)cc1`, the remaining activity was 53.1% (MAOA; enzyme activity, inhibitor; 10 µM).
The binding enthalpy of `CC[C@H](C)[C@H](NC(=O)[C@H](CCCNC(=N)N)NC(=O)[C@H](CCCNC(=N)N)NC(=O)[C@H](C)NC(=O)[C@H](CC(C)C)NC(=O)[C@H](CCCNC(=N)N)NC(=O)[C@H](C)NC(=O)[C@H](Cc1c[nH]c2ccccc12)NC(=O)[C@H](CCCCN)NC(=O)[C@H](CCC(=O)O)NC(C)=O)C(=O)N[C@@H](C)C(N)=O` is reported as -10.5 ± 0.8 kcal/mol (Histone chaperone ASF1A; isothermal titration calorimetry; concentration not given, pH 7.5, 20 °C).
`[N-]=[N+]=N[C@H]1[C@H](O)[C@@H](O)[C@H](n2cc(CO[C@@H]3O[C@H](CO)[C@H](O)[C@H](O)[C@H]3O)nn2)O[C@@H]1CO` gave a ΔG of -7.1 ± 0.1 kcal/mol (lecA; isothermal titration calorimetry; 25 °C).
`O=C1c2ccc(O)cc2OC2c3cc(-c4coc5cc(O)ccc5c4=O)ccc3OC12c1ccc(O)cc1` (stereo not drawn) gave a Hill coefficient of 1.45 (laccase (Trametes versicolor); substrate, Hill kinetic model; product formation).
With `Cc1ncsc1-c1ccc(C(CO)NC(=O)C2CC(O)CN2C(=O)C(C(C)C)n2cc(-c3ccc(COc4c(-c5c(C)c(F)cc6[nH]ncc56)c(C5CC5)cc5c(N6CC7CC6CN7)nc(OC6CCOCC6)nc45)cc3)nn2)cc1` (stereo not drawn) the protein degradation was 35% (GTPase KRas (KRAS, Homo sapiens, UniProt P01116, G12D); degrader; mouse PK-59 xenograft, tumour; intravenous, 10 mg/kg single, 144 h).
`COC(=O)C1=Cc2ccccc2S1(=O)=O`: protein level “decreased” (E3 ubiquitin-protein ligase RNF5 (Homo sapiens, UniProt Q99942); immunoblotting; HeLa; 10 µM, 9 h).
`CCCC[C@H](NC(=O)[C@@H]1CSSC[C@H](NC(=O)[C@@H](NC(C)=O)[C@@H](C)CC)C(=O)N[C@@H](C(C)C)C(=O)N[C@@H](Cc2cn(C)c3ccccc23)C(=O)N[C@@H](CCC(N)=O)C(=O)N[C@@H](CC(=O)O)C(=O)N[C@@H](Cc2c[nH]c3ccccc23)C(=O)N(C)CC(=O)N[C@@H](C)C(=O)N[C@@H](Cc2c[nH]cn2)C(=O)N[C@@H](CCCNC(=N)N)C(=O)N1)C(N)=O` — result for “relative dissociation rate constant”: 1.7 (Complement C3, C3b fragment (Homo sapiens, UniProt P01024); SPR; 25 °C; relative to: [Trp(Me)4]-Ac-compstatin).
The ΔG of `Clc1ccc2ccc3[n+](c2c1)[Ir-3]12([c]4ccccc4-3)([c]3ccccc3-c3ccc4ccc(Cl)cc4[n+]31)[n+]1ccccc1-c1cccc[n+]12.F[P-](F)(F)(F)(F)F` is reported as -9.38 kcal/mol (CDK9 (Homo sapiens, UniProt P50750); isothermal titration calorimetry; 25 °C).
With `CC1CN(S(=O)(=O)c2ccc(C=O)cc2)CC(C)O1` (stereo not drawn) the stabilisation factor was 8 (YWHAG/RELA (Homo sapiens, UniProt P61981+Q04206); 14-3-3/p65 binding stabilisation, fluorescence anisotropy; 1 mM, together with: FITC-labelled bivalent p65 peptide; relative to: DMSO control).
`CC[C@H](C)[C@H](NC(=O)[C@H](CCCNC(=N)N)NC(=O)[C@H](CCCCN)NC(=O)[C@@H]1CCCN1C(=O)[C@H](CO)n1cc(CN(CC[C@H](N)C(=O)O)C[C@H]2O[C@@H](n3cnc4c(N)ncnc43)[C@H](O)[C@@H]2O)nn1)C(=O)N[C@@H](C)C(N)=O`: methylation “inhibited” (N-terminal Xaa-Pro-Lys N-methyltransferase 1 (Homo sapiens, UniProt Q9BV86); inhibitor, MALDI-MS; IC50 and 5 × IC50, 20 min, together with: RCC1 peptide).
Under “loss of specific binding”, `[3H]C([3H])([3H])c1cnccc1CN1C[C@@H](c2cc(F)c(F)c(F)c2)CC1=O` is recorded as about 70.3% (SV2A (Homo sapiens, UniProt Q7L0J3); radioligand binding; human Alzheimer disease, hippocampus P2 fraction; 5 nM; relative to: control brains).
For `CC(=O)N[C@H]1NC[C@H](C(=O)O)[C@H](O)[C@@H]1O`, the Ki ratio was 2.5 fold (Sialidase-2 (Homo sapiens, UniProt Q9Y3R4); pH 6.0; relative to: compound over DANA).
For `OC[C@H]1O[C@@H](Oc2ccc(-c3cn([C@H]4[C@H](O)[C@@H](O)[C@H](c5cn([C@H]6[C@H](O)[C@@H](O)[C@H](n7cc(-c8ccc(O[C@@H]9O[C@H](CO)[C@H](O)[C@H](O)[C@H]9O)cc8)nn7)O[C@@H]6CO)nn5)O[C@@H]4CO)nn3)cc2)[C@H](O)[C@@H](O)[C@H]1O`, the -TΔS was 7.1 ± 0.6 kcal/mol (lecA; isothermal titration calorimetry; 298 K).
For `CNS(=O)(=O)Nc1nccc(Cc2c(C)c3ccc(Oc4ncccc4F)cc3oc2=O)c1F`, the remaining binding was 20% (MAPK9 (Homo sapiens, UniProt P45984); cell-free assay, competition with immobilised ligand; 1 µM).
For `CC1=C(/C=C/C(C)=C/C=C/C(C)=C/C=O)C(C)(C)CCC1`, “slow time constant of inhibition” read 3780 s (CNGA1 (Bos taurus, UniProt Q00194); ion current, inhibitor, patch clamp; 200 nM, holding potential +50 mV, together with: cGMP 2 mM).
`CC[C@H](C)[C@H](NC(C)=O)C(=O)N[C@H]1CSSC[C@@H](C(=O)N[C@H](C(N)=O)[C@@H](C)O)NC(=O)[C@H](CCCNC(=N)N)NC(=O)[C@H](Cc2c[nH]cn2)NC(=O)[C@H](C)NC(=O)CNC(=O)[C@H](Cc2c[nH]c3ccccc23)NC(=O)[C@H](CC(=O)O)NC(=O)[C@H](CCC(N)=O)NC(=O)[C@H](Cc2ccc(O)cc2)NC(=O)[C@H](C(C)C)NC1=O` gave a −TΔS of 5.3 kcal/mol (Complement C3; ITC; pH 7.4, 25 °C).
`COc1ccc2nc3cc(Cl)ccc3c(NCCCCc3c(N)nc(N)nc3N)c2c1` has a Ki of 2500 nM (T1, RNA, hairpin (Homo sapiens); MBNL1-RNA complex displacement, competitor, EMSA; apparent, no tRNA, together with: MBNL1 350 nM).
For `CC[C@H](C)[C@H](NC(=O)[C@@H]1CSSC[C@H](NC(=O)[C@@H](NC(C)=O)[C@@H](C)CC)C(=O)N[C@@H](C(C)C)C(=O)N[C@@H](Cc2cn(C)c3ccccc23)C(=O)N[C@@H](CCC(N)=O)C(=O)N[C@@H](CC(=O)O)C(=O)N[C@@H](Cc2c[nH]c3ccccc23)C(=O)NCC(=O)N[C@@H](C)C(=O)N[C@@H](Cc2c[nH]cn2)C(=O)N[C@@H](CCCNC(=N)N)C(=O)N1)C(N)=O`, “−TΔS of binding” read 5.7 kcal/mol (Complement C3; ITC; PBS; concentration not given, pH 7.4, 25 °C).
`CCOc1ccc(C[C@@H]2NC(=O)[C@H](C(C)C)NC(=O)[C@@H](NC(=O)[C@@H](NC(C)=O)[C@@H](C)CC)CSSC[C@@H](C(=O)N[C@H](C(N)=O)[C@@H](C)O)NC(=O)[C@H](CCCNC(=N)N)NC(=O)[C@H](Cc3c[nH]cn3)NC(=O)[C@H](C)NC(=O)CNC(=O)[C@H](Cc3c[nH]c4ccccc34)NC(=O)[C@H](CC(=O)O)NC(=O)[C@H](CCC(N)=O)NC2=O)cc1` gave a -TΔΔS of -0.3 kcal/mol (Complement C3; isothermal titration calorimetry; relative to: 1-methyltryptophan reference).
With `CC1CC2(N=CCS2)C2(O)OC3CC4(C)C(CC3OC2O1)CC1OC12C4C(O)C(=O)C1(C)C(C3=CC(=O)OC3)CCC12O` (stereo not drawn) the relative potency was 13 (Na+/K+-ATPase, Oncopeltus fasciatus; inhibitor; relative to: compound over ouabain).
The Emax of `CN(CCc1ccc(O)c(Br)c1)CCc1nccs1` is reported as 50.3% (HTR2B (Homo sapiens, UniProt P41595); β-arrestin recruitment, agonist).
The enrichment of `C#CCCCOc1ccc(CN(C)CC#C)cc1` is reported as 81 (MAOA; in situ probe labelling, LC-MS/MS; SH-SY5Y; unit not given; relative to: DMSO).
For `Oc1ccc(CCC(O)CC(O)CCc2ccc(O)cc2)cc1` (stereo not drawn), the inhibition was 67.4 ± 6.5% (Maob (Rattus norvegicus, UniProt P19643); enzyme activity, inhibitor; 100 µg/mL).
`CC[C@H](C)[C@H](NC(=O)[C@H](CO)NC(=O)[C@H](Cc1ccc(O)cc1)NC(=O)[C@H](CC(=O)O)NC(=O)[C@H](CO)NC(=O)[C@@H](NC(=O)[C@H](Cc1ccccc1)NC(=O)[C@@H](NC(=O)CNC(=O)[C@@H]1CCCN1C(=O)[C@H](C)NC(=O)[C@@H](N)Cc1ccc(O)cc1)[C@@H](C)O)[C@@H](C)CC)C(=O)N[C@@H](C)C(=O)N[C@@H](CCSC)C(=O)N[C@@H](CC(=O)O)C(=O)N[C@@H](CCCCN)C(=O)N[C@H](C(=O)N[C@@H](Cc1c[nH]cn1)C(=O)N[C@@H](CCC(N)=O)C(=O)N[C@@H](CCC(N)=O)C(=O)N[C@@H](CC(=O)O)C(=O)N[C@@H](Cc1ccccc1)C(=O)N[C@H](C(=O)N[C@@H](CC(N)=O)C(=O)N[C@@H](Cc1c[nH]c2ccccc12)C(=O)N[C@@H](CC(C)C)C(=O)N[C@@H](CC(C)C)C(=O)N[C@@H](C)C(=O)N[C@@H](CCC(N)=O)C(=O)N[C@@H](CCCCN)C(=O)NCC(=O)N[C@@H](CCCCN)C(=O)N[C@@H](CCCCN)C(=O)N[C@@H](CC(N)=O)C(=O)N[C@@H](CC(=O)O)C(=O)N[C@@H](Cc1c[nH]c2ccccc12)C(=O)N[C@@H](CCCCN)C(=O)N[C@@H](Cc1c[nH]cn1)C(=O)N[C@@H](CC(N)=O)C(=O)N[C@H](C(=O)N[C@H](C(=O)N[C@@H](CCC(N)=O)C(=O)O)[C@@H](C)O)[C@@H](C)CC)C(C)C)[C@@H](C)CC` gave an Emax of 80% (Gastric inhibitory polypeptide receptor (Rattus norvegicus, UniProt P43219); cAMP, agonist; COS-7).

Repeated from above:
The Emax of `CN(CCc1ccc(O)c(Br)c1)CCc1nccs1` is reported as 50.3% (HTR2B (Homo sapiens, UniProt P41595); β-arrestin recruitment, agonist).
With `Cc1ncsc1-c1ccc(C(CO)NC(=O)C2CC(O)CN2C(=O)C(C(C)C)n2cc(-c3ccc(COc4c(-c5c(C)c(F)cc6[nH]ncc56)c(C5CC5)cc5c(N6CC7CC6CN7)nc(OC6CCOCC6)nc45)cc3)nn2)cc1` (stereo not drawn) the protein degradation was 35% (GTPase KRas (KRAS, Homo sapiens, UniProt P01116, G12D); degrader; mouse PK-59 xenograft, tumour; intravenous, 10 mg/kg single, 144 h).
With `CC1CC2(N=CCS2)C2(O)OC3CC4(C)C(CC3OC2O1)CC1OC12C4C(O)C(=O)C1(C)C(C3=CC(=O)OC3)CCC12O` (stereo not drawn) the relative potency was 13 (Na+/K+-ATPase, Oncopeltus fasciatus; inhibitor; relative to: compound over ouabain).
